Results collected from several papers.
A part holds a random share of what one study measured. Substitutions count along the parent as printed.
UniProt Q96GD4, sequence (whole entry, looked up): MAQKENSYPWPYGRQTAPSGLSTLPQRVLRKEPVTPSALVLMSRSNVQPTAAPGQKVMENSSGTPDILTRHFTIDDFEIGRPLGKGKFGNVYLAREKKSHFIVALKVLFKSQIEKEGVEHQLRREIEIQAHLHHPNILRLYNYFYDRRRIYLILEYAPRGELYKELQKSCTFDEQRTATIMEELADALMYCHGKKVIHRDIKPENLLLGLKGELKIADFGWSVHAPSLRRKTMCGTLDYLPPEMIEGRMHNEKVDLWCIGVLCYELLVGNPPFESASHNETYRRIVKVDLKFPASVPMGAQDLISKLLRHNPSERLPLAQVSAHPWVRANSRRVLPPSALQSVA

Set 1
Target: CEP164, C-terminal peptide (human)
Technique: DHFR complementation, deep sequencing
Matrix: yeast
Notes: single substitutions, model-inferred values
Baseline: wild type
Direction: higher = weaker binding
Starting sequence: PDZK1, PDZ domain 2 (human); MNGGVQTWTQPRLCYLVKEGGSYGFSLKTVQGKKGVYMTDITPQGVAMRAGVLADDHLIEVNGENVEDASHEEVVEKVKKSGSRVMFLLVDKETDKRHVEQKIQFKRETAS; partner HNRVKVYRF
Under “binding free energy change”, `R97M` is recorded as -0.157 kcal/mol.
For `V36F`, “binding free energy change” read 0.895 kcal/mol.
`L53N` — result for “binding free energy change”: 0.406 kcal/mol.
For `Q104R`, “binding free energy change” read -0.187 kcal/mol.
`Q101S`: “binding free energy change” -0.0615 kcal/mol.
Under “binding free energy change”, `S83E` is recorded as -0.131 kcal/mol.
`D55V` — result for “binding free energy change”: 0.704 kcal/mol.
For `A47C`, “binding free energy change” read 1.75 kcal/mol.

Set 2
Target: Interferon regulatory factor 7, full length, phosphomimetic (IRF7, Homo sapiens, UniProt Q92985, residues 1-503, S471D/S472D/S475D/S476D/S477D/S483D/S484D/S487D)
UniProt Q92985, sequence (whole entry, unmodified, looked up): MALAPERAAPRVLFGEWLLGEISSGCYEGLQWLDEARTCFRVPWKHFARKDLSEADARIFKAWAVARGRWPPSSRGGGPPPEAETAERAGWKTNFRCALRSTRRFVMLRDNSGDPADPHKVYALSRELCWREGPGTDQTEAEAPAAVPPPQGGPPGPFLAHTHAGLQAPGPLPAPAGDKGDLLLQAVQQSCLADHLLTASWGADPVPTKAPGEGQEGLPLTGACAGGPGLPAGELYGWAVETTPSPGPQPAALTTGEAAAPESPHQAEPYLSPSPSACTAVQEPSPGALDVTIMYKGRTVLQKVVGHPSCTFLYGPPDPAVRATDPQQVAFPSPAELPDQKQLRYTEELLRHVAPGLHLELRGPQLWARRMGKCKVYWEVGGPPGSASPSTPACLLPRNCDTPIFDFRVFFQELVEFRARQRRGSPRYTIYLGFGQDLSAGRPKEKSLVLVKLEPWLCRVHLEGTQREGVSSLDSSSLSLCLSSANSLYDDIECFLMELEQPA
Technique: protein-binding microarray
Molecule type: double-stranded DNA, one strand shown
Matrix: in vitro
Tested at: 2200 nM top
Notes: 60-bp whole probe
Together with: salmon DNA 0.4 mg/ml
Baseline: random background probes
Direction: higher = stronger binding
Shared flanks, not repeated: GCCTAGCAC … GTCTTGATTCGCTTGACGCTGCTG
`TTAGGTTTCGGGTTTCGGTTTGTGCTA`: “fitted relative affinity” 14.6 z-score.
`TTAGGTCTCCTTTTTCTTTAGTGCTAG`: “fitted relative affinity” 1.04 z-score.
For `GACGATCTCAGTTTCTAGACGTGCTAG`, “fitted relative affinity” read 1.41 z-score.
`TTAGGTCTCCTAATGCTTTAGTGCTAG` — result for “fitted relative affinity”: 0.226 z-score.
Under “fitted relative affinity”, `TCAAACTTTTTTCTGATACTGTGCTAG` is recorded as 0.461 z-score.
`GAGGGTCTCGGTATCGGGACGTGCTAG`: “fitted relative affinity” -0.438 z-score.
`GACGTTTTTCATTTTTTTTTGTGCTAG`: “fitted relative affinity” 1.94 z-score.
`GACGGTTTCGGCTATCGGGACGTGCTA`: “fitted relative affinity” 3.35 z-score.

Set 3
Target: CCNA1, cyclin fold, Cln2 fusion (human)
Technique: yeast growth competition, sequencing
Matrix: yeast
Notes: weak parent motif
Baseline: not given
Direction: higher = stronger binding
Starting sequence: BRCA2 docking peptide (human); PSIKRNLLNEFDR; partner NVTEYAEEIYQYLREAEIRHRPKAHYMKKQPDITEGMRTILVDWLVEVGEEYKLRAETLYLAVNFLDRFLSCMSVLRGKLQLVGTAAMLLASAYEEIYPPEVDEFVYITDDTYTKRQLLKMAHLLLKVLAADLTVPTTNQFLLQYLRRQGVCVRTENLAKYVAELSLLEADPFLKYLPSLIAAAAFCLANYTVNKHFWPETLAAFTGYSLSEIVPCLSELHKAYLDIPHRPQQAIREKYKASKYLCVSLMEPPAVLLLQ
`PSIKRNLLNEFPR [D12P]`: “normalised enrichment score” 0.614.
`PSIKRNLLNEFDF [R13F]` — result for “normalised enrichment score”: 0.414.
`PSIKRNLLEEFDR [N9E]` — result for “normalised enrichment score”: 0.43.
`PSIKRNGLNEFDR [L7G]` — result for “normalised enrichment score”: 0.122.
`PSIKRNMLNEFDR [L7M]`: “normalised enrichment score” 0.251.
`PVIKRNLLNEFDR [S2V]`: “normalised enrichment score” 0.371.
Under “normalised enrichment score”, `PSHKRNLLNEFDR [I3H]` is recorded as 0.461.
Under “normalised enrichment score”, `PKIKRNLLNEFDR [S2K]` is recorded as 0.512.

Other studies, line by line
CS(=O)(=O)c1cc(C2(NC(=O)c3cncc4c3cnn4-c3ccc(F)cc3)CC2)ccn1 gave a remaining binding of 88% (Aurora kinase B (AURKB, Homo sapiens, UniProt Q96GD4); cell-free assay, competition with immobilised ligand; 1 µM).

For quick reference, copied from above (set 2):
`TTAGGTCTCCTTTTTCTTTAGTGCTAG`: “fitted relative affinity” 1.04 z-score.
